Assay results collected from several papers.
Compare with care: the assays were run in different laboratories. ± gives the spread as reported.

Structure (SMILES) | assay | system | conditions | how to read | quantity | result
CCCC[C@H](NC(=O)CCCCCCCNC(=O)c1ccc(NN)nc1)C(=O)N[C@H]1CC(=O)NCCCC[C@@H](C(N)=O)NC(=O)[C@H](Cc2c[nH]c3ccccc23)NC(=O)[C@H](CCCNC(=N)N)NC(=O)[C@@H](Cc2ccccc2)NC(=O)[C@H](Cc2c[nH]cn2)NC1=O [technetium-99m labelled] |  | C57 mice, B16/F1 melanoma, intestines | concentration not given, 2 h, with: 12 mg L-lysine |  | biodistribution | 1.64 ± 0.4 %ID
CCCCCC(=O)N[C@H]1CSCc2cc(CSCCNC(=O)CCCCCNC(=O)CC[C@H](NC(=O)CCC(C(=O)O)N3CCN(CC(=O)O)CCN(CC(=O)O)CCN(CC(=O)O)CC3)C(=O)NCCCOc3ccc4nccc(C(=O)NCC(=O)N5CC(F)(F)C[C@H]5C#N)c4c3)cc(c2)CSC[C@@H](C(=O)O)NC(=O)[C@H](Cc2ccccc2)NC(=O)[C@H](CCC(N)=O)NC(=O)[C@H]([C@@H](C)O)NC(=O)[C@@H]2CCCN2C(=O)[C@@H]2CCCN2C1=O (some centres unmarked) | shake flask | PBS |  |  | logP | -2.7
CCCC[C@H](NC(=O)CNC(=O)CNC(=O)CNC(=O)c1ccc(NN)nc1)C(=O)N[C@H]1CC(=O)NCCCC[C@@H](C(N)=O)NC(=O)[C@H](Cc2c[nH]c3ccccc23)NC(=O)[C@H](CCCNC(=N)N)NC(=O)[C@@H](Cc2ccccc2)NC(=O)[C@H](Cc2c[nH]cn2)NC1=O [technetium-99m labelled] |  | C57 mouse, B16/F1 melanoma, lung | intravenous, 2 h |  | uptake | 0.18 ± 0.12 %ID/g
CC(C)C[C@@H]1NC(=O)[C@H](C(C)C)NC(=O)[C@H](CO)NC(=O)CNC(=O)CNC(=O)[C@H](CCCNC(=N)N)NC(=O)[C@@H]2CCCN2C(=O)[C@@H](NC(=O)CC[C@H](NC(=O)c2ccc(N(C)Cc3cnc4nc(N)nc(N)c4n3)cc2)C(=O)O)C(C)(C)SSC[C@@H](C(=O)O)NC(=O)CNC(=O)[C@H]([C@@H](C)O)NC(=O)[C@H](C(C)C)NC1=O | pH-rate profile inflection |  | 70 °C |  | pKa carboxylic acid | 3.9
N=C(N)NCCC[C@@H]1NC(=O)[C@H](CCCCNC(=O)CCc2cn(CCC[C@@H]3O[C@H](COC(=O)NCCNC(=O)CN4CCN(CC(=O)O)CCN(CC(=O)O)CCN(CC(=O)O)CC4)[C@@H](O)[C@H](O)[C@H]3O)nn2)NC(=O)[C@@H](Cc2ccccc2)NC(=O)[C@H](CC(=O)O)NC(=O)CNC1=O [gallium-68 labelled] | PET | female NMRI nu/nu mice, U-87 MG xenograft, contralateral non-target area | intravenous, 10 MBq, hour 2 of recording |  | SUVmean | 0.1 ± 0.01 SUV
N=C(N)NCCC[C@@H]1NC(=O)[C@H](CCCCNC(=O)CCOCCOCCOCCOCCNC(=O)CN2CCN(CC(=O)O)CCN(CC(=O)O)CCN(CC(=O)O)CC2)NC(=O)[C@@H](Cc2ccccc2)NC(=O)[C@H](CC(=O)O)NC(=O)CNC1=O [indium-111 labelled] |  | athymic nude mice, female, U-87 MG glioma xenograft, tumour and heart | intravenous, 4 h | relative to: tumour over heart | tumour to tissue ratio | 9.51 ± 1.48
CCCC[C@H](NC(=O)CNC(=O)CNC(=O)c1ccc(NN)nc1)C(=O)N[C@H]1CC(=O)NCCCC[C@@H](C(N)=O)NC(=O)[C@H](Cc2c[nH]c3ccccc23)NC(=O)[C@H](CCCNC(=N)N)NC(=O)[C@@H](Cc2ccccc2)NC(=O)[C@H](Cc2c[nH]cn2)NC1=O [technetium-99m labelled] |  | C57 mouse, B16/F1 melanoma-bearing | intravenous, 0.5 h | relative to: tumour over kidney | tissue uptake ratio | 1.23
N=C(N)NCCC[C@@H]1NC(=O)[C@H](CCCCNC(=O)CNC(=O)CNC(=O)CNC(=O)CC[C@H](NC(=O)c2ccc(NN=Cc3ccccc3S(=O)(=O)O)nc2)C(=O)NCC(=O)NCC(=O)NCC(=O)NCCCC[C@@H]2NC(=O)[C@@H](Cc3ccccc3)NC(=O)[C@H](CC(=O)O)NC(=O)CNC(=O)[C@H](CCCNC(=N)N)NC2=O)NC(=O)[C@@H](Cc2ccccc2)NC(=O)[C@H](CC(=O)O)NC(=O)CNC1=O [technetium-99m labelled] |  | athymic nu/nu mouse, female, MDA-MB-435 xenograft | intravenous, 30 min | relative to: tumour over muscle | tumour to tissue ratio | 2.84 ± 0.93
N=C(N)NCCC[C@@H]1NC(=O)[C@H](CCCCNC(=O)CNC(=O)CNC(=O)CNC(=O)CC[C@H](NC(=O)CCOCCOCCOCCOCCNC(=O)CC[C@H](NC(=O)CN2CCN(CC(=O)O)CCN(CC(=O)O)CCN(CC(=O)O)CC2)C(=O)NCCOCCOCCOCCOCCC(=O)N[C@@H](CCC(=O)NCC(=O)NCC(=O)NCC(=O)NCCCC[C@@H]2NC(=O)[C@@H](Cc3ccccc3)NC(=O)[C@H](CC(=O)O)NC(=O)CNC(=O)[C@H](CCCNC(=N)N)NC2=O)C(=O)NCC(=O)NCC(=O)NCC(=O)NCCCC[C@@H]2NC(=O)[C@@H](Cc3ccccc3)NC(=O)[C@H](CC(=O)O)NC(=O)CNC(=O)[C@H](CCCNC(=N)N)NC2=O)C(=O)NCC(=O)NCC(=O)NCC(=O)NCCCC[C@@H]2NC(=O)[C@@H](Cc3ccccc3)NC(=O)[C@H](CC(=O)O)NC(=O)CNC(=O)[C@H](CCCNC(=N)N)NC2=O)NC(=O)[C@@H](Cc2ccccc2)NC(=O)[C@H](CC(=O)O)NC(=O)CNC1=O [indium-111 labelled] |  | female athymic nude mouse | intravenous, 3 µCi, 24 h, U-87 MG glioma xenograft | relative to: tumour over muscle | tumour to muscle ratio | 24 ± 14.2
CC(C)C[C@H](NC(=O)[C@@H]1CCCN1C(=O)[C@H](CCCCN)NC(=O)[C@@H](N)CO)C(=O)N1CCC[C@H]1C(=O)N[C@@H](CCC(=O)O)C(=O)N[C@H](C(=O)N[C@H](C(=O)N[C@@H](CC(=O)O)C(=O)N[C@@H](CCC(=O)O)C(=O)N[C@@H](Cc1ccc(O)cc1)C(=O)N[C@@H](Cc1cn(CCOCCOCCOCCNC(=O)CCc2ccc(O)c(CN(CCN(CC(=O)O)Cc3cc(CCC(=O)NCCCC[C@H](NC(=O)N[C@@H](CCC(=O)O)C(=O)O)C(=O)O)ccc3O)CC(=O)O)c2)nn1)C(=O)O)[C@@H](C)O)C(C)C [gallium-68 labelled] |  | NMRI nu/nu mouse, LNCaP tumour, tumour | 135.34 nmol/kg, low molar activity |  | standardised uptake value | 0.43 g/g
N=C(N)NCCC[C@@H]1NC(=O)[C@H](CCCCNC(=O)CC[C@H](NC(=O)CCOCCOCCOCCOCCNC(=O)CN2CCN(CC(=O)O)CCN(CC(=O)O)CCN(CC(=O)O)CC2)C(=O)NCCCC[C@@H]2NC(=O)[C@@H](Cc3ccccc3)NC(=O)[C@H](CC(=O)O)NC(=O)CNC(=O)[C@H](CCCNC(=N)N)NC2=O)NC(=O)[C@@H](Cc2ccccc2)NC(=O)[C@H](CC(=O)O)NC(=O)CNC1=O [indium-111 labelled] |  | athymic nude mice, female, U-87 MG glioma xenograft, tumour and kidney | intravenous, 0.5 h | relative to: tumour over kidney | tumour to tissue ratio | 0.96 ± 0.18
CCCC[C@H](NC(=O)CNC(=O)[C@H](CO)NC(=O)CNC(=O)c1ccc(NN)nc1)C(=O)N[C@H]1CC(=O)NCCCC[C@@H](C(N)=O)NC(=O)[C@H](Cc2c[nH]c3ccccc23)NC(=O)[C@H](CCCNC(=N)N)NC(=O)[C@@H](Cc2ccccc2)NC(=O)[C@H](Cc2c[nH]cn2)NC1=O [technetium-99m labelled] |  | C57 mouse, B16/F1 melanoma | 2 h | relative to: tumour over blood | uptake ratio | 98
N=C(N)NCCC[C@@H]1NC(=O)[C@H](CCCCNC(=O)CC[C@H](NC(=O)CCOCCOCCOCCOCCNC(=O)CC[C@H](NC(=O)CN2CCN(CC(=O)O)CCN(CC(=O)O)CCN(CC(=O)O)CC2)C(=O)NCCOCCOCCOCCOCCC(=O)N[C@@H](CCC(=O)NCCCC[C@@H]2NC(=O)[C@@H](Cc3ccccc3)NC(=O)[C@H](CC(=O)O)NC(=O)CNC(=O)[C@H](CCCNC(=N)N)NC2=O)C(=O)NCCCC[C@@H]2NC(=O)[C@@H](Cc3ccccc3)NC(=O)[C@H](CC(=O)O)NC(=O)CNC(=O)[C@H](CCCNC(=N)N)NC2=O)C(=O)NCCCC[C@@H]2NC(=O)[C@@H](Cc3ccccc3)NC(=O)[C@H](CC(=O)O)NC(=O)CNC(=O)[C@H](CCCNC(=N)N)NC2=O)NC(=O)[C@@H](Cc2ccccc2)NC(=O)[C@H](CC(=O)O)NC(=O)CNC1=O [indium-111 labelled] |  | female athymic nude mice, lungs | intravenous, 3 µCi, 72 h, U-87 MG glioma xenograft |  | tissue uptake | 0.33 ± 0.03 %ID/g
CSCC[C@H](NC(=O)[C@H](CC(C)C)NC(=O)[C@H](Cc1c[nH]cn1)NC(=O)CNC(=O)[C@@H](NC(=O)[C@H](C)NC(=O)[C@H](Cc1c[nH]c2ccccc12)NC(=O)[C@H](CCC(N)=O)NC(=O)CCCCCNC(=O)CNC(=O)CNC(=O)CNC(=O)CSC(C)=O)C(C)C)C(N)=O [technetium-99m labelled] |  | Swiss mouse, kidney | intravenous, 18.5 MBq, 30 min |  | tissue uptake | 3.01 ± 0.78 %ID/g

Some of these lines once more:
Structure (SMILES) | assay | system | conditions | how to read | quantity | result
CCCC[C@H](NC(=O)CNC(=O)[C@H](CO)NC(=O)CNC(=O)c1ccc(NN)nc1)C(=O)N[C@H]1CC(=O)NCCCC[C@@H](C(N)=O)NC(=O)[C@H](Cc2c[nH]c3ccccc23)NC(=O)[C@H](CCCNC(=N)N)NC(=O)[C@@H](Cc2ccccc2)NC(=O)[C@H](Cc2c[nH]cn2)NC1=O [technetium-99m labelled] |  | C57 mouse, B16/F1 melanoma | 2 h | relative to: tumour over blood | uptake ratio | 98
